Results gathered from unrelated publications.
Compare with care: the assays were run in different laboratories. pIC50: −log10 of the molar value.
CA9: Carbonic anhydrase 9 (CA9, Homo sapiens, UniProt Q16790)
UniProt P42336, sequence (whole entry, looked up): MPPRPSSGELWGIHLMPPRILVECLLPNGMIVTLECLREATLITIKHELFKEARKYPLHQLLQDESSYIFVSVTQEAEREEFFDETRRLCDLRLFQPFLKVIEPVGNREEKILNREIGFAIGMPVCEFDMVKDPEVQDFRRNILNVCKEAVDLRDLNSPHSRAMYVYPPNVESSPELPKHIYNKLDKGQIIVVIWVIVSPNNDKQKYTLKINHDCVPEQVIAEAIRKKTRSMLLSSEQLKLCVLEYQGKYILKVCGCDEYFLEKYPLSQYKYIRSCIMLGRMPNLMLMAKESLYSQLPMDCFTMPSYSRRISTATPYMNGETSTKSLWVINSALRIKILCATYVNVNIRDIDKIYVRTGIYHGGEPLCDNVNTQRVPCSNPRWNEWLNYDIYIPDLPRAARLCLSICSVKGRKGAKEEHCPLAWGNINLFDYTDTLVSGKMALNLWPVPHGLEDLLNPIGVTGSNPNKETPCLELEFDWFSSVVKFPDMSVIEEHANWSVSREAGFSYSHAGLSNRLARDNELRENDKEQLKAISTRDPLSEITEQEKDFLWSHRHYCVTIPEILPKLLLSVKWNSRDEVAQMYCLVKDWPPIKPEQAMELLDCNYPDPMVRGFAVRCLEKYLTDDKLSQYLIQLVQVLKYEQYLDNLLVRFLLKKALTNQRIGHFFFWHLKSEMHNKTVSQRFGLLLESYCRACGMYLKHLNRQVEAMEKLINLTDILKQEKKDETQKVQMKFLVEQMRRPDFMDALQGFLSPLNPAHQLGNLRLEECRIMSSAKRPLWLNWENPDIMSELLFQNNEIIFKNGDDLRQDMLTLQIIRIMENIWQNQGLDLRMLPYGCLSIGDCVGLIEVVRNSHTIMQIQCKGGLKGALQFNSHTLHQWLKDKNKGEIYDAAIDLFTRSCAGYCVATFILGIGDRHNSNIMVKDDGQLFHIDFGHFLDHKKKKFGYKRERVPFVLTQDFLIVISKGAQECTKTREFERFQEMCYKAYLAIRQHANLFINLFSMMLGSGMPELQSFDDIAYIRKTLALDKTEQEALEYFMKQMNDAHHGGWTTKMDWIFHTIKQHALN
UniProt P35590, sequence (whole entry, looked up): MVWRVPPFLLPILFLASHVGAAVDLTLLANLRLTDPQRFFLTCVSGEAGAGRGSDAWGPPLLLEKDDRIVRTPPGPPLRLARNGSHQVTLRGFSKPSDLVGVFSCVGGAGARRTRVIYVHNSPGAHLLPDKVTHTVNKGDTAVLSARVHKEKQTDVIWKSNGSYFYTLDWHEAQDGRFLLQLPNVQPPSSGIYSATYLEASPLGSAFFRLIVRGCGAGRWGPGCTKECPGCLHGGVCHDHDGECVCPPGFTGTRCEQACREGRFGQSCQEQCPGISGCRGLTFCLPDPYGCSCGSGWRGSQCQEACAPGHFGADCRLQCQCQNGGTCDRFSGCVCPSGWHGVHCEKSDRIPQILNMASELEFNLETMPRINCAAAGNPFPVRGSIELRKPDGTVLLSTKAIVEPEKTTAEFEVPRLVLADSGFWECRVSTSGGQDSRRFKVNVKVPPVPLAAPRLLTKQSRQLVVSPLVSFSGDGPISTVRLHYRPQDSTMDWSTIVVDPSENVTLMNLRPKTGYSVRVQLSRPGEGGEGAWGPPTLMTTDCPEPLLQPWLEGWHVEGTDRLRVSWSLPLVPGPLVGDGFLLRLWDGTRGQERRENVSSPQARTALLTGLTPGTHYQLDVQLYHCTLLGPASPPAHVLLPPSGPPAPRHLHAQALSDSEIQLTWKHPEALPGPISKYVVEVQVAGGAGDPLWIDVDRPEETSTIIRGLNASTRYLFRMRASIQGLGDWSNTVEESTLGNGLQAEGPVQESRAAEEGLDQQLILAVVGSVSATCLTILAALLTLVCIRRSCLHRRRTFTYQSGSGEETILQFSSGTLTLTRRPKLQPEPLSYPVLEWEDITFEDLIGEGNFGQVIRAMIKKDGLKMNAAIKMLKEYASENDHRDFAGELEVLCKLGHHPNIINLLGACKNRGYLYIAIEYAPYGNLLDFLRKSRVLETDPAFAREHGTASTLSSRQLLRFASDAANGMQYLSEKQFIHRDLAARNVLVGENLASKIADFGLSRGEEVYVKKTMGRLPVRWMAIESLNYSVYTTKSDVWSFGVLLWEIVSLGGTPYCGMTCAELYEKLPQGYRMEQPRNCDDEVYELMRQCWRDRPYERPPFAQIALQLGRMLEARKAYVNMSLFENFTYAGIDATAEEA

Structure (SMILES)	target or system	test	conditions	endpoint	result
C1=C/COCc2cc(ccc2OCCN2CCCC2)Nc2nccc(n2)-c2cccc(c2)COC/1	PIK3CA (Homo sapiens, UniProt P42336)	binding	0.1 µM	remaining binding	77%
[2H]c1c([2H])c([C@]2([2H])CCCN2C(=O)C(C)(C)Oc2ccc3cn[nH]c3c2)c([2H])c([2H])c1C([2H])([2H])[2H]	TIE1 (Homo sapiens, UniProt P35590)	binding, competition with immobilised ligand	1 µM	remaining binding	77%
Cc1cnn(-c2ccc(S(N)(=O)=O)cc2NCc2ccc(C(=O)N3CCCCC3)cc2)c1	CA9	enzyme activity, inhibitor		pIC50	4.61
CC(=NNC(=O)c1cccnc1)c1ccc(Nc2nnc(-c3ccc(Cl)cc3)c3ccccc23)cc1	HepG2	cell growth or viability, MTT	1.25 µM, 24 h	viability	11.9%
CCCN(O)N=Nc1ccc(S(=O)(=O)Nc2cc(C)on2)cc1		DPPH scavenging, absorbance	20 µg/mL	inhibition	5.83%
CC(=O)Nc1ccc(NC(=O)c2ccc(Cl)c(S(N)(=O)=O)c2)cc1	CA9	enzyme activity, inhibitor		pIC50	6.06
Cc1cccc(N(O)N=Nc2ccc(S(=O)(=O)Nc3nccs3)cc2)c1		DPPH scavenging, absorbance	20 µg/mL	inhibition	19.9%
O=C(Nc1ccccc1)Nc1ccc(Oc2nnc(-c3ccc(Cl)cc3)c3ccccc23)cc1	HepG2	cell growth or viability, MTT	0.156 µM	cell death	81.3%
C=CC(=O)N1CCC(COCC(=O)N2CCN(c3nc(-c4cnc(N)nc4C(F)F)nc(N4CCOC[C@@H]4C)n3)CC2)CC1	PRKACB (Homo sapiens, UniProt P22694)	binding, competition with immobilised ligand	1 µM	remaining binding	93%

Repeated from above:
Structure (SMILES)	target or system	test	conditions	endpoint	result
Cc1cccc(N(O)N=Nc2ccc(S(=O)(=O)Nc3nccs3)cc2)c1		DPPH scavenging, absorbance	20 µg/mL	inhibition	19.9%
